Measurements from different studies.
“And” joins repeats or separate records; there may be more than shown.
Organism: SARS-CoV-2

| Compound | assay | test system | setting | how to read | endpoint | result |
| --- | --- | --- | --- | --- | --- | --- |
| CC(C)(C)NC(=O)[C@@H](c1cccnc1)N(C(=O)c1ccco1)c1ccc(C(C)(C)C)cc1 |  | Vero | 1 µM |  | viral titre | 1.04e+06 IU/mL |
| CC(C)CC(C(=O)N1CC2(CC1C#N)C(=O)Nc1ccccc12)N(C)C(=O)c1cc2c(F)cc(F)c(F)c2[nH]1 (stereo not drawn) | viral replication | Vero E6 | 3 µM |  | inhibition | 96.3% and 94.6% and 96.4% and 86.2% and 95.8% and 95.1% |
| Cc1oc2nc1C(=O)N[C@](C)(C(=O)OC(C)C)c1nc(c(C)o1)C(=O)N[C@](C)(C(=O)OC(C)C)c1nc(c(C)o1)C(=O)N[C@]2(C)C(=O)OC(C)C | viral adsorption | Vero E6, NRC-03-nhCoV | 20 µM |  | inhibition | 52% |
| Cc1ccc(N2CC3CC(C2)N3)cc1C(=O)NC1(c2ccc3c4c(cccc24)C(=O)N3C)CC1 | viral replication | Vero C1008, Omicron BA.5 | 12.5 µM |  | inhibition | 100% |
| CCCC/C=C/C(=O)N[C@@H](Cc1csc2ccccc12)C(=O)N[C@H]1COC(=O)[C@@H]2C[C@@H](C)CN2C(=O)[C@H](C)NC(=O)[C@@H]2CCCCN2C(=O)[C@@H]2CCCN2C1=O |  | Huh-7 | concentration not given, 6 h, unit not given | reference: DMSO | viral RNA release | 0.218 and 0.328 and 0.321 |
| Cc1oc2nc1C(=O)N[C@](C)(C(=O)NCCc1ccccc1)c1nc(c(C)o1)C(=O)N[C@](C)(C(=O)NCCc1ccccc1)c1nc(c(C)o1)C(=O)N[C@]2(C)C(=O)NCCc1ccccc1 | viral replication | Vero E6, NRC-03-nhCoV | 5 µM |  | inhibition | 5% |
| Cc1ccc(N2CC(N3CCC(C)(O)CC3)C2)cc1C(=O)NC1(c2ccc3c4c(cccc24)CC3)CC1 | viral replication | Vero C1008, XBB.1 | 12.5 µM |  | inhibition | 100% |
| Cc1oc2nc1C(=O)N[C@](C)(C(=O)O)c1nc(c(C)o1)C(=O)N[C@](C)(C(=O)O)c1nc(c(C)o1)C(=O)N[C@]2(C)C(=O)O | viral adsorption | Vero E6, NRC-03-nhCoV | 5 µM |  | inhibition | 16% |
| Cc1ccc(N2CCN(C)CC2)cc1C(=O)NC1(c2ccc3c4c(cccc24)CC3)CC1 | viral replication | Vero C1008, XBB.1 | 0.01715 µM |  | inhibition | 0% |

Some of these lines once more:
| Compound | assay | test system | setting | how to read | endpoint | result |
| --- | --- | --- | --- | --- | --- | --- |
| Cc1ccc(N2CC(N3CCC(C)(O)CC3)C2)cc1C(=O)NC1(c2ccc3c4c(cccc24)CC3)CC1 | viral replication | Vero C1008, XBB.1 | 12.5 µM |  | inhibition | 100% |
